# Measured values gathered from unrelated publications.
# Parts stem from different laboratories: compare values within a part only. Changes are numbered by the printed parent chain.

# Set 1
# Target: Ras GTPase-activating protein-binding protein 1, full length (G3BP1, Homo sapiens, UniProt Q13283)
# Chain of UniProt Q13283 (whole entry, looked up): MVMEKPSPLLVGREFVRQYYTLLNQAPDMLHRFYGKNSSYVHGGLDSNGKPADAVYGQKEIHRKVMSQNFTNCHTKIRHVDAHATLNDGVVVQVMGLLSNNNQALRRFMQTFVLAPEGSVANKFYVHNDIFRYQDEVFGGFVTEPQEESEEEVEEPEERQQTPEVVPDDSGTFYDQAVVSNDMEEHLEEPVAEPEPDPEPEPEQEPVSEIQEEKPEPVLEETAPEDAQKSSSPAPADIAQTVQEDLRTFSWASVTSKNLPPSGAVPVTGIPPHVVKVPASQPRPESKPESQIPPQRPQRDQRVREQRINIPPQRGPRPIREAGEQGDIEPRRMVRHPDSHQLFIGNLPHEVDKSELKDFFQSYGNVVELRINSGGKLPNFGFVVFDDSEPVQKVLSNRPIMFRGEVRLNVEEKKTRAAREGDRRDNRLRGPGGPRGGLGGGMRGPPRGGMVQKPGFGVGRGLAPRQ
# Method: RNA Bind-n-Seq
# Form: RNA
# Medium: in vitro
# Tested at: 200 nM
# Setting: whole 134-nt RNA, ends assumed
# Added: 150 mM KCl
# Relative to: input library
# Reading: higher = stronger binding
# Constant ends, left off below: GGGAGUUCUACAGUCCGACGAUC … UGGAAUUCUCGGGUGUCAAGG
Oligonucleotide,log2 enrichment
CAAGUCCUGUGCUACACAUCGUAUGUACCGAAUCGGCCCGGGGCCCGGGGCCCGGAAAGUAUUAUGUUACGCCGUUCGGAUCUGCACUUC,-0.854
CAAGUCCUGUGCUACACAUCGUAUGUACCGAAUCGGGUGGGAAAAAAAGGGAGGGAAAGUAUUAUGUUACGCCGUUCGGAUCUGCACUUC,0.48
UUUGAAGAUCAGCUUCAGCAAUGGUUGUCUGAAGACUCAGGAGCAUUUACGGAUUUAACUUCCCUUCCCCUCUAUCUUCCUCAGACUCUA,-0.214
AGUCCUGUGCUACACAUCGUAUGUACCGAAUCGGAAAAAGGGGAAAAAGGGAAAAAGGAAAGUAUUAUGUUACGCCGUUCGGAUCUGCAC,-0.928
UUCCUCAAGUCCUGUGCUACACAUCGUAUGUACCGAAUCGGAGGAGGUGGAAAGUAUUAUGUUACGCCGUUCGGAUCUGCACUUCCAGCA,-0.914
CCUGUGCUACACAUCGUAUGUACCGAAUCGGGGUUUUUGGGGUUUUUUUGGGGAAAGGGGAAAGUAUUAUGUUACGCCGUUCGGAUCUGC,0.416
GUCCUGUGCUACACAUCGUAUGUACCGAAUCGGGUUUUUUUGGGUUUUUUUGGGAGGGAAAGUAUUAUGUUACGCCGUUCGGAUCUGCAC,-0.186
AAGUCCUGUGCUACACAUCGUAUGUACCGAAUCGGGAAAAGGGGAAAAGGGAAAAGGAAAGUAUUAUGUUACGCCGUUCGGAUCUGCACU,-0.532
CUGUGCUACACAUCGUAUGUACCGAAUCGGGGUUUUUUGGGUUUUUUGGGGUUUUUUGGGGAAAGUAUUAUGUUACGCCGUUCGGAUCUG,-0.489
AGUCCUGUGCUACACAUCGUAUGUACCGAAUCGGGGAGGGGUGGGGUUUUUUUGGGGAAAGUAUUAUGUUACGCCGUUCGGAUCUGCACU,0.536
CAAGUCCUGUGCUACACAUCGUAUGUACCGAAUCGGGUGGGUGGGUUUUUUUGGGAAAGUAUUAUGUUACGCCGUUCGGAUCUGCACUUC,0.483
CCUCAAGUCCUGUGCUACACAUCGUAUGUACCGAAUCGGGUGGGAGGGUGGGAAAGUAUUAUGUUACGCCGUUCGGAUCUGCACUUCCAG,0.349
ACCAUGCAGGUGGGCAUCUUUGGGAAGUGGGGCAAGGGGGGGAUAGGGAGGGGGGUAACACUUUGGGAACAUGUGGUCCCAGGUCGUUUC,1.09
UCAAGUCCUGUGCUACACAUCGUAUGUACCGAAUCGGUUUGGGUUUGGGUUUGGAAAGUAUUAUGUUACGCCGUUCGGAUCUGCACUUCC,-0.671

# Set 2
# Target: RING finger protein unkempt homolog, zinc fingers 1-6, GST-SBP tag (UNK, Homo sapiens, UniProt Q9C0B0, residues 30-357)
# Method: RNA Bind-n-Seq
# Form: RNA
# Medium: in vitro
# Tested at: not given
# Setting: RNA with constant flanks, human and mouse sites, ends assumed
# Relative to: input RNA pool
# Reading: higher = stronger binding
# Constant ends, left off below: GGGAGUUCUACAGUCCGACGAUC … CAACAGAGGAUUGAGCAUCA
# Target sequence (chain): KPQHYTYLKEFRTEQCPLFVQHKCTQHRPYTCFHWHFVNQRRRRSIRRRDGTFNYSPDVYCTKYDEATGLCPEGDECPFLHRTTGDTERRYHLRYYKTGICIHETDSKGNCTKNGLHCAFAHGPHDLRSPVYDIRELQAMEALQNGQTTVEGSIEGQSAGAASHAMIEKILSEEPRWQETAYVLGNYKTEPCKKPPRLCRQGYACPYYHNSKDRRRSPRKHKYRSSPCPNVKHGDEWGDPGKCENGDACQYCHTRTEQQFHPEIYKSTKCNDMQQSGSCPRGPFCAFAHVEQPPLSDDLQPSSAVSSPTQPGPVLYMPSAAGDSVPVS
Oligonucleotide,bound/input enrichment [ratio]
AAAUAUGGCCCCAUUGCUGAUGUGUCUAUUGUAUAUGACCAGCAAUCUAGACGUUCAAGAGGAUUUGCCUUUGUAUAUUUUGAAAAUGUAGACGAUGCCAAGGAAGCUAAAGAACGUGCC,0.74
CUUCUGGAGAAGUUGUACAAGGUAAAUCUUAAGGUGAAGCAUGUGGAAUACGAUAAGUUUUAUAUCCCUGAGAUUUCUAGUCUUGUGGACAUUCAGGAAGACUACCUCAUGUGGUUUUUG,0.183
GGGGGUAAUUAUGCUUUGUGAAGUAGGGAUUAAAUGAAGGGAAAACUACAGAGGCGGCUGCGAGAAGGAUGAGUGUGCGCACACCUGUCAGUAAACAGUUGGUCAACCGUAGGGACAGGA,0.68
CUUCAUUUUACACUAAAGCAUAAUGUCAUGAAGUUUCAUAUCUGUACAGAUUAUUUAAAUCAUAGAAAUGAAAAAUGUUCUCUGCUUGCUACCAAAGGACAAACUCUUGGAAACGGACAU,0.48
GGCUAUGAUGUUUUAGCCAACCCCCCAGGACCAGAAGACCAGGAUGAUGAUGACGAUGCCUAUAGCGAUGUGUUUGAAUUUGAAUUUUCAGAGACCCCCCUCUUACCGUGUUAUAACAUC,0.602
GCGGGCGGCCGCGAGUGAGCAGCGCGCGGGCCUGAGGGUACCUGAAGCUCAGCGCACAGCUGCUGUGACACCGCUGCGUGGACAAUGGCUACUCAAGCUGACCUGAUGGAGUUGGACAUG,0.186
UCCAGUGGUUUUGGCGGCAAGUAUGGCGUGCAGGCCGACCGAGUAGACAAGAGCGCGGUGGGCUUCGACUACCAGGGCAAGACGGAGAAGCACGAGUCACAGAGAGAUUACUCCAAAGGU,0.0984
GGACCCGAUCACGCGUCAGGUGGGACAGCACAUUGAGAUGGAGCCAGAGUGGGAAGCAGCCUUCACACUGCAGAUGAAGCUGACACACGUCAUCUCAAUGGUGCAGGACUGGUGUGCUCU,0.0562
UUCUUCACUCCGUAUGUAUAUCCAGCCACGUGGCCCGAGGACAACAUCAUCCGACAAACUAUUAGCCUCCUGAUUGUCACAAACCUGGGUGCUUACAUUCUCUACUUCUUCUGUGCAACC,0.461
GAAAUUAUUAAAAACAAGGGGGGUGGGUAAUAAAUGUAUAUAACAUUAAAUAAUGUAACGUAGGUGUAGAUUCCCAAAUGCAUUUGGAUGUACAGAUCGACUACAGAGUACUUUUUUCUU,1.29
UGUCUUGAUGACACAACAGUAAAAUUUGAAAUAUGGGAUACAGCUGGUCAAGAACGGUAUCAUAGCUUAGCACCAAUGUACUACCGAGGAGCACAAGCAGCCAUAGUUGUGUAUGAUAUC,0.378

# Set 3
# Target: RNA binding protein fox-1 homolog 2, RRM domain, GST-SBP tag (RBFOX2, Homo sapiens, UniProt O43251-10, residues 100-194)
# Method: RNA Bind-n-Seq
# Form: RNA
# Medium: in vitro
# Tested at: 365 nM
# Setting: natural RNA segment, single round, ends assumed
# Relative to: no-protein control
# Reading: higher = stronger binding
# Constant ends, left off below: GGGAGUUCUACAGUCCGACGAUC … UGGAAUUCUCGGGUGCCAA
# Construct (chain): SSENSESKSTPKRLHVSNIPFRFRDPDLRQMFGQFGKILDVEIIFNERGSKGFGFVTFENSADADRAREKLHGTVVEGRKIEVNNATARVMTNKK
Oligonucleotide,RBNS enrichment (R)
AUUGGGCUUAAAUCAGUGUAACCUGAUUCAUCCUGGGAUGUAAACCAUUUGAAGUCAGCUAAUUUGACUUUUAUGGCUCUGUCUUUUUCUUUCAUGAAGAACCCUGUUUA,0.272
GACCUCGGGCAAGGCCCUCUCUGGGCCUCGGUGGCCUGUGGAUAAGGAGGGGAGACCCCCACUCGCCUGCCUGCCUGCAUCACGGGGCCAUUGUGAGGUUGGGGGAAGAC,3.65
AUCAUUUGAAAAAUGUAUCUAAAAUAAUCCAGAGAACAUAAUGUUUGUCUUGGUCUGAUAAUGAUAAGAAGUCAAGGAUUGGCAGAGAAAAUACUAAACGCCAAGAGUUG,0.527
CCCCAGUCAUUGCUGUCUGCAAGUGAUGCGCAUUUAAGUGUUUAAUCUCCUGGGAGCAGGGCACAGGGAAGACUAUGAGGAGAGCUAAUGUGGUCUGUACAAGGACACUG,0.467
CCCAACACACUUUUCCACCUGGGAGCCUGUGCCCUCAGACCGCCCCGCACCAGAGCCACGGGCUGUGGGGCGGGGAGCCCUCCCCCGCUGCAGCCCUCUCAGAACAGAGG,0.256
GAAGAUUUUUAUCUUCUGCAGUGCUGAUGGCCGGGAGGAACCAUUCAAAGCCACUGGUUAUUUUGUUUUUCAUCAGGCGAUUUUCAAGAUUUUCAUUUGUUUCAGUAUUG,0.628
AAAACUGGACUUGAUUCUACUGGUAUGCAAAACAGGCAUGCUAGUAAGCAGUCAGUCGUGGCUCAGAACUUAACCCCAUAGCUCAGAGGAAUGCUUUUAGCAGAAAACAG,0.383
CAAGUGUAAGGAACUGCGUUCCGCCCCUCAGGCCCCCAUGGGGGCAGGGAUCGGCUUGGAAAUCAACGUGGUUGUCCCCGCCAGGCCGGGGAAGGUUGGAGCAGCCCCCA,0.277
ACCCCCAAUCUUCUUCUCUAGGUCGCCAAUCCCACAGGCUGUACAGCUCAGUUCCCUAUGUUUAUGCUGUGUUGUUCCCACCUCAGUGCUGUCAGCCUUUGGGACAGUGG,1.2
UUUACAUGCCUAAAUAUCUGCAGGUUUUCUUACAGGUAAAGCGAAGUGCUUUGAAAAGUUUAGAUUAUACAUGUGUGACAGAUGCGGCAUAUUUGCUCUAUUAACACAGA,0.374
AGCAGGAAGGAGCUCUUUUCUGUUCCCAAGCCUCAGAACUCUUGAGCUGUGGCUUACUUGCUGUCUUCACCAGGUUCAAGCUCCGUGGGCCACACUGCUGCUGUGCCAAG,0.257
AAGAAGAUAAUGCUUAUUCUGUUAAUGCACACUUUUAAGUUUUGAUGAUUUUUUACAGUGUUUUAGACCUUGAAUAGCUAGUGGCUUUUGCUAAAAACUUUUGGCAACAA,0.628

# Single results of other studies
# CCNA2: CCNA2, cyclin fold, Cln2 fusion (human)
# P1: CABLES2 docking peptide (human); ICAKRSLCAAFSV; partner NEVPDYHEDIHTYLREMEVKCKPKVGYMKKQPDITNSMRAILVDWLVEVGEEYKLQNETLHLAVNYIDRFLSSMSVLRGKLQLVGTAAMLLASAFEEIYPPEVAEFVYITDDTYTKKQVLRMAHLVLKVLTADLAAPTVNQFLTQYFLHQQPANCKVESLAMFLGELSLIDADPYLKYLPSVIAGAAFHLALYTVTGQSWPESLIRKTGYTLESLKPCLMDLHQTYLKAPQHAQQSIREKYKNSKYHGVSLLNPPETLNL
Substance,target,test,test system,conditions,how to read,quantity,result
ASPLKKLFTSTGL,human cyclin A2,"peptide binding, competitive growth sequencing","peptide, Saccharomyces cerevisiae, cyclin A2-Cln2 fusion strain",mutational scanning library 1,direction not given,enrichment score,-0.671
P1 C2A,CCNA2,"yeast growth competition, sequencing",yeast,strong parent motif,"relative to: not given, higher = stronger binding",normalised enrichment score,2.01
P1 C8A,CCNA2,"yeast growth competition, sequencing",yeast,strong parent motif,"relative to: not given, higher = stronger binding",normalised enrichment score,2.98

# Repeated from above (set 3):
Oligonucleotide,RBNS enrichment (R)
GAAGAUUUUUAUCUUCUGCAGUGCUGAUGGCCGGGAGGAACCAUUCAAAGCCACUGGUUAUUUUGUUUUUCAUCAGGCGAUUUUCAAGAUUUUCAUUUGUUUCAGUAUUG,0.628
AAAACUGGACUUGAUUCUACUGGUAUGCAAAACAGGCAUGCUAGUAAGCAGUCAGUCGUGGCUCAGAACUUAACCCCAUAGCUCAGAGGAAUGCUUUUAGCAGAAAACAG,0.383
CAAGUGUAAGGAACUGCGUUCCGCCCCUCAGGCCCCCAUGGGGGCAGGGAUCGGCUUGGAAAUCAACGUGGUUGUCCCCGCCAGGCCGGGGAAGGUUGGAGCAGCCCCCA,0.277
ACCCCCAAUCUUCUUCUCUAGGUCGCCAAUCCCACAGGCUGUACAGCUCAGUUCCCUAUGUUUAUGCUGUGUUGUUCCCACCUCAGUGCUGUCAGCCUUUGGGACAGUGG,1.2
